Assay results from different studies.
Each line is one published result; not all experiments were run side by side. ± marks the error that the study gave. ≈ marks a conversion by molar mass, not a printed value.

| SMILES | organism | assay | system | conditions | scale | measurement | value |
| --- | --- | --- | --- | --- | --- | --- | --- |
| C=C(NC(=O)c1csc(-c2nc3c(cc2O)-c2nc(cs2)C(=O)NC(C(C)O)C(=O)NC(=C(C)OC)c2nc(cs2)C(=O)NC2c4nc(cs4)C(=O)NC(COC(=O)c4c5c6c(cccc6n4O)COC(=O)C(OC4CC(C)(O)C(N(C)C)C(C)O4)C2OC5)c2nc-3cs2)n1)C(N)=O (centres unmarked) | Staphylococcus aureus | – | – | – | – | MIC50 | 0.0078 µg/mL (≈ 0.00543 µM) |
| Cc1cccc(Nc2n[nH]c3nc(-c4ccccc4)nc(N)c23)c1 | rhinovirus B48 | viral cytopathic effect | HeLa | – | – | IC50 | 1150 nM |
| Cc1cccc2c1N(C(=O)n1ccnn1)CC2 | Arabidopsis thaliana | – | kai2 mutant | 30 µM | – | germination rate | 21.3% |
| c1ccc(CN2CCOCCOCCN(CCCCCCCCCCN3CCOCCOCCN(CCCCCCCCCCN4CCOCCOCCN(Cc5ccccc5)CCOCCOCC4)CCOCCOCC3)CCOCCOCC2)cc1 | Klebsiella pneumoniae | – | ATCC BAA-2146 | quarter MIC, added: tetracycline | – | tetracycline MIC | 300 ± 50 µM |
| Nc1nc(-c2ccccc2)nc2[nH]nc(Nc3cc(F)c(F)c(F)c3)c12 | rhinovirus B48 | viral cytopathic effect | HeLa | – | – | IC50 | 3090 nM |
| CC[C@H](C)CCCCC(=O)N[C@@H](CCN)C(=O)N[C@H](C(=O)N[C@@H](CCN)C(=O)N[C@H]1CCNC(=O)[C@H]([C@@H](C)O)NC(=O)[C@H](CCN)NC(=O)[C@H](CCN)NC(=O)[C@H](CC(C)C)NC(=O)[C@@H](CC(C)C)NC(=O)[C@H](CCN)NC1=O)[C@@H](C)O | Pseudomonas aeruginosa | – | PAO1 | 60 min | – | bacterial count | 0 log CFU |
| Nc1nc(-c2ccc(Cl)cc2)nc2[nH]nc(Nc3cccc(F)c3)c12 | rhinovirus B48 | viral cytopathic effect | HeLa | – | – | IC50 | 4510 nM |
| c1ccc(CN2CCOCCOCCN(CCCCCCCCCCCCCCN3CCOCCOCCN(CCCCCCCCCCCCCCN4CCOCCOCCN(Cc5ccccc5)CCOCCOCC4)CCOCCOCC3)CCOCCOCC2)cc1 | Klebsiella pneumoniae | – | ATCC BAA-2146 | quarter MIC, added: ciprofloxacin | – | FIC index | 0.82 |
| Cc1cc(Cl)cc(S(C)=NC#N)c1NC(=O)c1cc(Br)nn1-c1ncccc1Cl (centres unmarked) | Spodoptera litura | – | Brassica oleracea field | 50 ppm, 168 h, 10% wettable powder | – | larval survival | 17.1% |
| c1ccc(CN2CCOCCOCCN(CCCCCCCCN3CCOCCOCCN(CCCCCCCCN4CCOCCOCCN(Cc5ccccc5)CCOCCOCC4)CCOCCOCC3)CCOCCOCC2)cc1 | Klebsiella pneumoniae | ciprofloxacin activity | ATCC BAA-2146 | half MIC, added: ciprofloxacin | relative to: ciprofloxacin alone | fold enhancement | 10 fold |
| CC1(C)[C@H](NC(=O)/C(=N\OC2(C(=O)O)CCCC2)c2csc(N)n2)C(=O)N1OS(=O)(=O)O | Enterobacter aerogenes | agar dilution | ATCC 13048, susceptible | – | – | MIC | 0.5 µg/mL (≈ 1.02 µM) |
| CCCOC(=O)N1c2cc(CNC)ccc2[C@H](NC(=O)C(=O)Nc2ccc(Cl)c(F)c2)[C@H]1CNC(=N)N | HIV-1 | viral infection | TZM-bl, CRF02_AG 263-8 Env pseudovirus | – | – | IC80 | 1580 nM |
| CSc1ccc(Nc2n[nH]c3nc(-c4ccccc4)nc(N)c23)cc1 | rhinovirus B48 | viral cytopathic effect | HeLa | – | – | IC50 | 100 nM |
| CC(C)(C)NCC(SS(=O)(=O)O)c1ccccc1 (centres unmarked) | Schistosoma mansoni | – | mice | 600 mg/kg single dose, 1248 h, dosed day 7, perfused 52 | relative to: vehicle | male worm burden reduction | 32% |
